# Measurements gathered from unrelated publications.
# Each numbered part is a random draw from the data of one study; scales do not carry over between parts.

# Sample 1
# Target: Sal-like protein 4, full length isoform B (SALL4, Homo sapiens, UniProt Q9UJQ4-2, residues 1-616)
# Technique: universal PBM
# Molecule type: double-stranded DNA, one strand shown
# Sample: in vitro
# Tested at: not given
# Notes: 8-mer, flanks averaged, mean of replicates
# Reading: higher = stronger binding
# Construct (chain): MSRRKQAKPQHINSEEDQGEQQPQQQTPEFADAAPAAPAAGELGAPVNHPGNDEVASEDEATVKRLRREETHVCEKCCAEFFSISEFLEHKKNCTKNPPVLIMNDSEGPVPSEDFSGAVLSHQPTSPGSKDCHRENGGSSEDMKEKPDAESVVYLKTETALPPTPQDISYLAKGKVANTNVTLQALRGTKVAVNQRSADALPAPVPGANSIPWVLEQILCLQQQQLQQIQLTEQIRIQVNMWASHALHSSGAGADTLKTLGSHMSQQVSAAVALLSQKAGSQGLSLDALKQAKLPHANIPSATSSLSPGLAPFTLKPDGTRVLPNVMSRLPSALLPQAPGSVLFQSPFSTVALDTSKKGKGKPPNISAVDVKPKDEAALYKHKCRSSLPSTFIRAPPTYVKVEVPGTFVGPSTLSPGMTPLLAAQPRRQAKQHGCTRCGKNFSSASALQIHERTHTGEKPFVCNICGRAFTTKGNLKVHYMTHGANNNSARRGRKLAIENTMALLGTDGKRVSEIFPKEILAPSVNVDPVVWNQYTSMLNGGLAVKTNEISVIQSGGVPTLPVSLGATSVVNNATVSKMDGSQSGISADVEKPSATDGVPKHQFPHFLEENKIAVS
Sequence,E-score
AATACTCT,0.303
CACTAAGA,-0.0341
AGCTACCG,-0.225
CAACCTGA,-0.0167
GTCGAGCA,-0.151
TCGTAAGA,-0.00273
CCGGATTC,-0.241
AAAGGGAT,0.202
GATTCGAA,0.103
ACCAGTCC,-0.361
ACAATTTA,0.285
GGTTGGGA,-0.213
TATCTCCA,0.0994
CGTCTAAC,0.00593
GCTGGCGA,-0.192
ATTCAGAA,0.102
CCGCGGAG,-0.377
AATCAAAC,0.108
CCGATACC,-0.182
CACTTAAA,0.196
GTCGGACA,-0.0787
AATGCTAT,0.257
CAAGGCGG,-0.251
AGTGTAGG,0.0775
ACCCTTAA,0.0868

# Sample 2
# Target: Prothrombin, mature alpha-thrombin (F2, Homo sapiens, UniProt P00734)
# Technique: aptamer microarray, sandwich
# Molecule type: DNA with 2'F-ANA
# Sample: in vitro
# Tested at: 200 nM
# Notes: whole 15-mer aptamer, many near background
# With: Cy3 exosite-II aptamer, 400 nM
# Reading: higher = stronger binding
# Sequence: GGTTGGTGTGGTTGG
Modification,mean fluorescence intensity
2'F-ANA at 1 2 3 4 8 14 15,72.9 a.u.
2'F-ANA at 1 5 6 7 11 14 15,48.7 a.u.
2'F-ANA at 2 5 7 8,94.7 a.u.
2'F-ANA at 3 4 6 7 10 14 15,204 a.u.
2'F-ANA at 2 7 9 12 15,743 a.u.
2'F-ANA at 1 5 6 10 11 12 13 15,51.5 a.u.
2'F-ANA at 1 4 5 6 7 8 10 13,46.2 a.u.
2'F-ANA at 1 3 5 10 12 14,41.9 a.u.
2'F-ANA at 4 5 7 8 9 10 12 13 14,48.9 a.u.
2'F-ANA at 3 5 7 8 9 10 11 12 13 14 15,55.4 a.u.
2'F-ANA at 3 7 9 11 13 14 15,591 a.u.
2'F-ANA at 3 4 6 8 10 11 13,184 a.u.
2'F-ANA at 1 3 4 7 8 10 11 12 13 14,51.9 a.u.
2'F-ANA at 1 7 8 9 10 12 13 14 15,49.7 a.u.
2'F-ANA at 2 3 7 8 10 11 12,425 a.u.
2'F-ANA at 1 2 3 5 7 8 9 10 12 13 15,48.2 a.u.
2'F-ANA at 1 2 3 4 5 6 8 9 11 12 13 14,64.7 a.u.
2'F-ANA at 1 4 7 8 9 11 12 13 15,168 a.u.
2'F-ANA at 1 2 5 7 8 9 12 15,115 a.u.
2'F-ANA at 1 2 3 5 6 7 8 9,70.2 a.u.
2'F-ANA at 2 4 5 8 10 11 12 13 14,52.1 a.u.
2'F-ANA at 3 7 12 15,1540 a.u.
2'F-ANA at 2 5 6 10 15,46.3 a.u.
2'F-ANA at 2 4 6 7 9 11 12 14,114 a.u.
2'F-ANA at 4 5 8 9 11 12 13 14,83.6 a.u.

# Sample 3
# Target: RING finger protein unkempt homolog, zinc fingers 1-6, GST-SBP tag (UNK, Homo sapiens, UniProt Q9C0B0, residues 30-357)
# Technique: RNA Bind-n-Seq
# Molecule type: RNA
# Sample: in vitro
# Tested at: not given
# Notes: RNA with constant flanks, human and mouse sites, ends assumed
# Baseline: input RNA pool
# Reading: higher = stronger binding
# Constant ends, left off below: GGGAGUUCUACAGUCCGACGAUC … CAACAGAGGAUUGAGCAUCA
# Construct (chain): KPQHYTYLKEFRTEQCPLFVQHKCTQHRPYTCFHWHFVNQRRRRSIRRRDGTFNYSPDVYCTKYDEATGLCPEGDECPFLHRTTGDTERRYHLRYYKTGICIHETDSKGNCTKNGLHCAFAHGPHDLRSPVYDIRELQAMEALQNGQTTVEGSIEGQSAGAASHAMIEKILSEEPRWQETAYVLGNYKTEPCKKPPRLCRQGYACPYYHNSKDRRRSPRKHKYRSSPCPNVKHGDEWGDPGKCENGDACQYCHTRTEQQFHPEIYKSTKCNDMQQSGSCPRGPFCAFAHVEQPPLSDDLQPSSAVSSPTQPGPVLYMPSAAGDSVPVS
Sequence,bound/input enrichment [ratio]
AUUUUUGGGAAGGUGCAAGGGGUGUUUUUCCGUAAGCAUACUCAGGCUGAGGGUAAAAAGCUGGGAUUGGUAGGCUGGGUCCAGAACACUGACCGGGGCACAGUGCAAGGACAAUUGCAA,0.56
GUGACGUGCAAUGGAGUCCUCGUUAAUGCCGGUGAUAAGGUGCAGCAUGGAGCCGUGUACAGUUUGGAGCCCAGGCUUCGUGGGGGGAAAGGAGGUUUUGGGUCUAUGCUUCGAGCACUU,0.188
UUCUACGUGAAUAGGAUUUUGUGGCUGGCCAGAUACACUGCAUCAUCUUUUUCAUCAUUUUUAGUUCAACUUUUUCAAGUGGUUUUAAUGAAGCUCAGUUAUGAAUCAGAAAAUUACAAA,1.55
AAGAUCCUUUCGGUAAAUGGCCAAGACCUAAAGAACCUGCUGCACCAGGAUGCUGUAGACCUCUUUCGUAAUGCAGGCUAUGCUGUGUCUCUGAGAGUGCAGCACAGGUUACAGGUGCAG,0.0652
AAAGUGGACUAUGGCGAGUACAUGGAUAAAAACAAUGUGAGGCGGCAAGCAACAACAAUCAUAGCUGAUAACAUUAUAUUUCUGAGUGACCAGACAAAAGAAAAGGCAUAGAACGGAUGA,2.91
CCUCCAGAAUUUGGGUUUCCUGAGAAGACAACAGUGAAACAGCGUUACCGGCUGCUUGGCAAUAGCCUCAACGUGCAUGUGGUAGCAAAACUCCUCACAGUCCUGUGUGAAGGAUUUGGA,0.246
AUCCCCGUGGCUCCCCCAGCAGCCCUGACCCACCUGGCUCUCUGCUCAUGUCUACAAGAAUCUUCUAUCCUGUCCUGUGCCUUAAGGCAGGAAGAUCCCCUCCCACAGAAUAGCAGGGUU,0.642
UUGACAAAAGUACCAUGGAGUUUUAUGAGUCAGCAUAUUUUAUUGUUCUUAUUCCUUCAAUAGUUAUUACAGUAAUUUUCCUCUUCUUCUGGCUUUUCAUGAAAGAAACAUUAUAUGAUG,5.24
AACCGUUAGUCUUUCCGACAGACGUGGCCUUUUUCAUCUAAGGGCUCAACCAGUCUAAGCAUUUCUUGUAGUUAGAGAGUGAGGUGUUCAGUGGAAGUGUGUCUCUCACAGUAUCAGGAC,0.614
CAGCCUGGGGACACAGCCAAGGCCGUGGUAGCCCAAGCUGUCCGUCAUCUCCCACAGUCUGUCAGGAUUUACAUCAGAGCCGCAGAGCUGGAAACGGACAUUCGUGCAAAGAAGCGGGUU,0.179
GCUGAUUAUCAUGUCUGUAAUAGACCCGUGCAUGCAGCCUUCCCUCUGCCUCCCCCUCAUCUCCUCACAGGUGGGUUAUUUACAUUACAAACUUUUAACUCAUUUUUGAUCUAGGACAUG,0.385

# Sample 4
# Target: Histone acetyltransferase KAT6A, winged helix 2, GST fusion (KAT6A, Homo sapiens, UniProt Q92794, residues 85-181)
# Technique: protein binding microarray
# Molecule type: double-stranded DNA, one strand shown
# Sample: in vitro
# Tested at: not given
# Notes: 8-mer, flanks averaged, mean of 2 arrays, mostly near background
# Baseline: not given
# Reading: higher = stronger binding
# Target sequence (chain): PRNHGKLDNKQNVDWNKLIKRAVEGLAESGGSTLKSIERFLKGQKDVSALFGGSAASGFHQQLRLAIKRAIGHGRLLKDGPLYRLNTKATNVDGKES
Sequence,E-score
ATTAGTTC,-0.0967
GAGCGGAC,-0.149
CAAAGGGC,0.0684
CTAAGGAG,-0.0481
ACGACCAA,0.0562
ACGATCGG,-0.091
GGCCTTGA,0.109
CAAGCTGC,0.12
GGGAAGGA,-0.0214
CATACTTC,-0.111
ACTTCGAG,0.0776
TAGAAGGA,-0.099
CGAGTAAA,0.0648
CGAGGAGA,-0.2
CAAATGCC,0.12
CGCAAAAG,0.0456
GTGTGGTA,-0.0921
CAACTGCA,0.119
ACTCGCAC,0.119
ACTACCAT,-0.13
CTGGAGCA,0.0503
GCGGCCAC,0.0277
AGGCTTCC,0.113
AGCCATAA,-0.0298

# Sample 5
# Target: Interferon regulatory factor 7, full length, phosphomimetic (IRF7, Homo sapiens, UniProt Q92985, residues 1-503, S101K/S471D/S472D/S475D/S476D/S477D/S483D/S484D/S487D)
# Technique: protein-binding microarray
# Molecule type: double-stranded DNA, one strand shown
# Sample: in vitro
# Tested at: 250 nM
# Notes: 60-bp whole probe
# With: salmon DNA 0.4 mg/ml
# Baseline: random background probes
# Reading: higher = stronger binding
# Constant ends, left off below: GCCTAGCAC … GTCTTGATTCGCTTGACGCTGCTG
# Residues (chain): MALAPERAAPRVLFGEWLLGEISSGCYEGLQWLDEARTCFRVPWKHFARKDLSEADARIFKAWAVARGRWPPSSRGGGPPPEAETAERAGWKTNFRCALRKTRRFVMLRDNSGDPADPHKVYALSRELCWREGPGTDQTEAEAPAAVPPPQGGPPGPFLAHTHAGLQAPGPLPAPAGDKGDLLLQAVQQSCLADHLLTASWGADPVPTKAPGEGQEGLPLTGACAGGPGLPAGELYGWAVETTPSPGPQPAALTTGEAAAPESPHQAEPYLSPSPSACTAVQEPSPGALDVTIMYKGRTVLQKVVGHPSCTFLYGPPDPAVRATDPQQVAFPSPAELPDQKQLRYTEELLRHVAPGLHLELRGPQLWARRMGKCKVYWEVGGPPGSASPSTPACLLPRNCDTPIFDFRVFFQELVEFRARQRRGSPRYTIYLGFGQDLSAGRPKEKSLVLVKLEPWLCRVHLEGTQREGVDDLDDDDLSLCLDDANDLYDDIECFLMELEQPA
Sequence,log fluorescence [z-score]
GCCGATTTCGGGACTGGAGACGTGCTA,0.295
GACGGTTTCGGGTATCTGGACGTGCTA,6.77
GACGGTATCGGGTTTCTGGACGTGCTA,1.56
TCAAATTCCAAGTTCATACTGTGCTAG,0.925
TTAGGTCTCGGGACTGGGTTAGTGCTA,0.481
TTAGGTATCTTTTTCCTTTAGTGCTAG,1.6
TCATCTAAAAAGTCTCTGACTGTGCTA,0.231
GACGATTTCAGTCTCAAGACGTGCTAG,0.179
TTAGCACTGGGGACTGGGTTAGTGCTA,-0.654
GACGGTCTTGGTCTCGGGACGTGCTAG,0.235
GTCGATATCAGACTGGAGACGTGCTAG,0.109
GACGGACTAGGGTTTCGGGACGTGCTA,1.42
TTCATTTTCTTTAACTCATTGTGCTAG,1.21
GACGGACTGGGGTAACGGGACGTGCTA,-0.662
GACGGACTGTTACTGCTGACGTGCTAG,-0.497
GACCATTCCAGTTTCGAGACGTGCTAG,5.04
